Measured values pooled from the literature.
Lines come from different studies, so protocols differ. Numbers after ± are the reported error.
Cell line: A549

`COc1ccc(/C=C/C2=[N+]3C(=C(CO)c4c(C)cc(/C=C/c5ccc(OC)cc5)n4[B-]3(F)F)C(C)=C2)cc1` has an IC50 of 0.45 ± 0.14 µM (phototoxicity, resazurin; added: 645 nm light, 9.00 J/cm2).
For `Cc1cc(/C=C/c2ccc(O)c(O)c2)[nH]n1`, the IC50 was greater than 100 µM (cell growth or viability, MTT; 48 h).
For `Cc1cc(/C=C/C#N)cc(C)c1Oc1cc(Nc2ccc(C#N)cn2)nc2cnccc12`, the IC50 was 26 ± 0.6 µM (48 h).
`CC(C)=CCC1=C([O-])C(=O)c2ccccc2C1=O.CC(C)=CCC1=C([O-])C(=O)c2ccccc2C1=O.[Cu+2].c1ccc(-c2ccccn2)nc1` gave an IC50 of 33.9 ± 1.6 µM (cell viability, MTT; 24 h).
For `CC(C)=CCc1c2c(c(O)c3c(=O)c(-c4ccc(O)cc4)coc13)CC(C(C)(C)O)O2` (stereo not shown), the IC50 was 40.3 µM (cell growth or viability, MTT).
The IC50 of `COc1cc(C(=O)c2[nH]c(N)nc2-c2ccc(Cl)cc2)cc(OC)c1OC` is reported as 0.725 µM (cell growth or viability, SRB; 24 h).
`S=c1n(-c2ccccc2)c2c3ccccc3nc3[n+]2[n]1[Ir-3]12([S]3)([c]3ccccc3-c3sc4ccccc4[n+]31)[c]1ccccc1-c1sc3ccccc3[n+]12` has an IC50 of greater than 50 µM (cell viability, MTT; dark).
For `C=CC(=O)Nc1cc(Nc2nccc(-c3c(-c4ccc5ccccc5c4)n(C)c4ccccc34)n2)c(OC)cc1N(C)CCN(C)C`, the IC50 was 0.652 µM (cell growth or viability, MTT; 72 h).
With `[Cl-].[Cl-].[Ru+2].c1ccc(-c2ccnc3c2ccc2c(-c4ccccc4)ccnc23)cc1.c1cnc2c(c1)ccc1cccnc12.c1cnc2c(c1)ccc1cccnc12` the IC50 was 0.8 µM (resazurin; 72 h, added: indigo light 450 nm, 29.1 J/cm2).
For `N[C@@H]1CCCC[C@H]1N.O=C1[O][Pt]2([O]C1=O)[O]C(=O)C(=O)[O]2`, the IC50 was 46 ± 7 µM (cell viability, MTT; 96 h).
For `O=[N+]([O-])[O-].[NH3+][Pt-2]1([NH3+])[O]C(c2ccccc2)=CC(c2ccccc2)=[O+]1` (stereo not shown), the IC50 was 1.3 µM (cell growth or viability, MTT).
`C=C(CO)[C@@H]1CC[C@]2(C)CC[C@]3(C)[C@H](CC[C@@H]4[C@@]5(C)CCC(=O)C(C)(C)C5CC[C@]43C)C12` (stereo partly shown) gave an IC50 of 14.3 µM (cell growth or viability, SRB).
With `C=C1C2CC3C4N5CC6(C)CCCC47C6C5CC3(C1O)C7C2` (stereo not shown) the IC50 was 75.3 µM (cell growth or viability, MTT).
With `C[C@H]1[C@H](C)CC[C@]2(C)CC[C@]3(C)C(=CC(=O)[C@@H]4[C@@]5(C)CC[C@@H](O)[C@](C)(C(=O)NCCNC(=O)C6CC6)[C@@H]5CC[C@]43C)[C@H]12` the IC50 was 14 µM (cell growth or viability, MTT; 48 h).
`COc1cc(N(C)CCN(C)C)c(NC(=O)/C=C/c2ccc3c(c2)OCO3)cc1Nc1nccc(-c2cn(C)c3ccccc23)n1` has an IC50 of 0.295 µM (cell growth or viability, MTT; 72 h).
With `N=c1c2sc3sc4c(=N)n(-c5ccccc5)c(=S)[nH]c4c3c2[nH]c(=S)n1-c1ccccc1` the IC50 was 9.27 µM (cell growth or viability, MTT).
`COc1c(O)cc2oc3c(Cl)c(O)c(CC=C(C)C)c(O)c3c(=O)c2c1CC=C(C)C` gave an IC50 of greater than 40 µM (cell growth or viability; 48 h).
`[Cl-].[Cl-].[Ru+2].c1ccc(-c2ccccn2)nc1.c1ccc(-c2ccccn2)nc1.c1ccc(-c2ccccn2)nc1` has an IC50 of greater than 100 µM (cell growth or viability; 72 h, dark).
`CC(=O)O[C@@H]1CC[C@@]2(C)[C@@H](CC[C@]3(C)[C@@H]2C(=O)C=C2[C@@H]4[C@@H](C)[C@H](C)CC[C@]4(C)CC[C@]23C)[C@@]1(C)C(=O)NCCNC(=O)CCCCCCC[P+](c1ccccc1)(c1ccccc1)c1ccccc1` gave an IC50 of 18.4 µM (cell growth or viability, MTT; 48 h).
`Cc1cc(C)c(N[C](NCc2cccc(N[C](Nc3c(C(C)C)cccc3C(C)C)=[Pt-]([Cl])([Cl])[C]#[N+]c3c(C(C)C)cccc3C(C)C)c2)=[Au][Cl])c(C)c1` gave an IC50 of greater than 100 µM (cell growth or viability).
For `CC(=O)[O-].O.O.O.O.[Ni+2].[O-]c1ccc(Br)cc1C=NCCN1CCOCC1`, the IC50 was 24.5 µg/mL (cell viability, MTT; 72 h).
`C[N+]1(C)CC[NH2+][Pt-2]1([OH])([Cl])([Cl])[O]C(=O)CCC(=O)OCCO` gave an IC50 of 319 µM (cell growth or viability, MTT; 96 h).
`Cc1ccc(S(=O)(=O)c2c(-c3ccccc3)c3c(C)c4ccccc4n3c3ccccc23)cc1` gave an IC50 of 14.6 µM (cell growth or viability, MTT; 72 h).
The IC50 of `N#Cc1cccc(-c2ccc(=O)n(Cc3cccc(-c4ncc(OCC5CCN(CCC(=O)Nc6cccc7c6C(=O)N(C6CCC(=O)NC6=O)C7=O)CC5)cn4)c3)n2)c1` (stereo not shown) is reported as 1.26 µM (cell growth or viability, CCK-8; 72 h).
For `C=C(C)[C@@H]1CC[C@]2(C(=O)O)CC[C@]3(C)[C@H](CC[C@@H]4[C@@]5(C)CC[C@H](O[C@@H]6O[C@@H](C)[C@H](OC)[C@@H](O)[C@H]6O)C(C)(C)[C@@H]5CC[C@]43C)[C@@H]12`, the IC50 was 2.5 µM (cell growth or viability, fluorescence; 48 h).
With `COc1ccccc1/C=C1\SC(=O)N(CC(=O)Nc2ccc(C(=O)Nc3ccc([N+](=O)[O-])cc3)cc2)C1=O` the IC50 was 10.9 µM (cell growth or viability, MTT).
The IC50 of `C=C(C)[C@@H]1CC[C@]2(COC(=O)CCC(=O)O)CC[C@]3(C)[C@H](CC[C@@H]4[C@@]5(C)CC[C@H](OC(=O)CCC(=O)O)C(C)(C)[C@@H]5CC[C@]43C)[C@@H]12` is reported as 7.09 µg/mL (cell growth or viability, SRB; 72 h).
The IC50 of `Nc1cccc[n+]1Cc1cccc(C[n+]2ccccc2N)c1` is reported as 11.2 µM (cell growth or viability, MTT; 72 h).
The IC50 of `COc1ccc([C@@H]2C3CCCN3[C@@]3(c4ccccc4-c4nc5ccccc5nc43)[C@H]2C(=O)c2nc3ccccc3[nH]2)cc1` (stereo partly shown) is reported as 0.146 µM (cell growth or viability, MTT; 72 h).
`O=C1N=C(N2N=C(c3cccs3)CC2c2ccc(F)cc2)S/C1=C\c1ccccc1` (stereo not shown) has an IC50 of 37.5 µM (cell growth or viability, MTT).
For `C[O][Pt-2]([NH3+])([NH3+])([Cl])([Cl])[O]C(=O)CCC(=O)O`, the IC50 was 220 µM (cell growth or viability, MTT; 96 h).
`N#Cc1c(F)c(F)c2nc(SCC3CCCO3)nc(N)c2c1F` (stereo not shown) has an IC50 of 26.4 µM (cell growth or viability, MTT; 96 h).
For `CC(=O)O[C@H]1C[C@H]([C@H](C)CCC=C(C)C)[C@@]2(C)CC=C3C(=CC[C@H]4C(C)(C)[C@@H](O)CC[C@]34C)[C@]12C`, IC50 read “inactive” (cell viability, MTT; 72 h).
`CC1=CC(C)=[N+]2C1=C(CO)c1c(C)cc(C)n1[B-]2(C)C` has an IC50 of greater than 100 µM (cytotoxicity, resazurin; 4 h incubation, dark).
`Cc1cc(C)c(N=[C](NCc2ccc(N)cc2)[AuH][Cl])c(C)c1` has an IC50 of greater than 100 µM (cell growth or viability).
`C=C1C(=O)[C@@]23CC[C@@H]4[C@](C)(COC(C)=O)CCC[C@@]4(COC(C)=O)[C@@H]2[C@@H](O)C[C@@H]1C3` gave an IC50 of greater than 20 µM (cell growth or viability, MTT).
The IC50 of `COc1ccc(C2=NN(C3=NC(=O)/C(=C/c4ccccc4)S3)C(c3ccc(F)cc3)C2)cc1` (stereo not shown) is reported as greater than 100 µM (cell growth or viability, MTT).
`CC(=O)O[C@@H]1CC[C@@]2(C)[C@@H](CC[C@]3(C)[C@@H]2C(=O)C=C2[C@@H]4[C@@H](C)[C@H](C)CC[C@]4(C)CC[C@]23C)[C@@]1(C)C(=O)NCCNC(=O)CCCCCBr` gave an IC50 of 9.73 µM (cell growth or viability, MTT; 48 h).
The IC50 of `Cn1cnc(Cn2ccc3ccc(CNCc4[nH]c5ccccc5c4C4NC(=O)c5ccc(O)cc54)cc32)c1` (stereo not shown) is reported as greater than 30 µM (cell growth or viability, ATP luminescence; 72 h).
`CC1=C(Cn2c3cccc(=O)c-3nc3ccccc32)CCC(C)(C)C1` has an IC50 of 0.38 µM (cell growth or viability, CCK-8; 72 h).
With `COC(=O)[C@@H](NC(=O)[C@@H](NC(=O)[C@@H](NC(=O)OC(C)(C)C)C(C)C)C(C)C)C(C)C` the IC50 was 1 µM (cell growth or viability, SRB).
`COc1ccc2c(c1)c(CC(=O)Nc1nnc(CCCCc3ccc(NC(=O)Cc4cccc(OC(F)(F)F)c4)nn3)[se]1)cn2C` has an IC50 of 0.01 to 0.04 µM (cell growth, inhibitor, EZMTT; 120 h).
For `c1ccc(-c2nn(-c3ccccn3)[n+](-c3ccccc3)n2)cc1`, the IC50 was 17 ± 2 µM (cell growth, resazurin).
The IC50 of `O=C(NCCc1ccccc1)c1ccccc1-n1c(=O)[nH]c2ccccc2c1=O` is reported as 16.4 µM (cell growth or viability, MTT; 24 h).
The IC50 of `Cc1ccc(C(C)C)cc1.[Cl-].[Cl-].[Fe+2].[Ru+2].c1cc[cH-]c1.c1ccc(P(=NCc2ccccn2)(c2ccccc2)[c-]2cccc2)cc1` is reported as greater than 125 µM (cell growth or viability, MTT; 24 h).
`Cc1cc(C)c(N[C](NCc2ccc(N[C](Nc3c(C(C)C)cccc3C(C)C)=[Pd-]([Cl])([Cl])[C]#[N+]c3c(C(C)C)cccc3C(C)C)cc2)=[Au][Cl])c(C)c1` has an IC50 of 23 µM (cell growth or viability).
`C=C(C)[C@@H]1CC[C@]2(C(=O)OCO/N=[N+](\[O-])N3CCCC3)CC[C@]3(C)[C@H](CC[C@@H]4[C@@]5(C)CC[C@H](OC(C)=O)C(C)(C)[C@@H]5CC[C@]43C)[C@@H]12` gave an IC50 of 7.44 µM (cell growth or viability, MTT; 72 h).
With `COc1ccc(S(=O)(=O)Nc2ccc(CCCC(=O)O[C@H]3c4cc5c(cc4[C@@H](c4cc(OC)c(OC)c(OC)c4)[C@H]4C(=O)OC[C@@H]43)OCO5)cc2)cc1` the IC50 was 4.04 µM (cell growth or viability, CCK-8; 24 h).
The IC50 of `O=C1c2cccc3cccc(c23)C12NC(Cc1ccc(O)cc1)C([N+](=O)[O-])C2c1ccccc1` (stereo not shown) is reported as 82 µM (cell growth or viability, MTT; 24 h).
The IC50 of `COc1ccc(/N=N/C(=S)N2CCCC2)cc1` is reported as greater than 50 µM (cell growth or viability, resazurin; 48 h).
`C[C@]12CC/C(=N\O)C=C1CCC1C2CC[C@]2(C)/C(=C/c3ccccn3)CCC12` (stereo partly shown) gave an IC50 of 1.5 µM (cell growth or viability, MTT; 72 h).
`C=CC(=C)CC[C@]1(C)[C@H](C)C[C@H](OC(=O)CCCCCCC)[C@@]23C(=C[C@H](OC(C)=O)C[C@@H]12)[C@@H](OC(C)=O)O[C@H]3OC(C)=O` has an IC50 of 5.98 µM (cell growth or viability, SRB).
With `CCCC(CCC)C(=O)[O][Pt]([Cl])([Cl])[O]C(C)=O.N.N` the IC50 was 8.36 µM (cell growth or viability).
With `COc1c(O)cc2oc3cc4c(c(O)c3c(=O)c2c1CC(O)C(C)(C)O)CC(O)O4` (stereo not shown) the IC50 was greater than 40 µM (cell growth or viability; 48 h).
With `CCN1CCC2(CC1)C/C(=N\NC(=O)Nc1ccc(Cl)cc1)c1ccccc1O2` the IC50 was 47.7 µM (cell growth or viability, MTT; 48 h).

For quick reference, copied from above:
`COc1cc(N(C)CCN(C)C)c(NC(=O)/C=C/c2ccc3c(c2)OCO3)cc1Nc1nccc(-c2cn(C)c3ccccc23)n1` has an IC50 of 0.295 µM (cell growth or viability, MTT; 72 h).
`CC(=O)O[C@@H]1CC[C@@]2(C)[C@@H](CC[C@]3(C)[C@@H]2C(=O)C=C2[C@@H]4[C@@H](C)[C@H](C)CC[C@]4(C)CC[C@]23C)[C@@]1(C)C(=O)NCCNC(=O)CCCCCCC[P+](c1ccccc1)(c1ccccc1)c1ccccc1` gave an IC50 of 18.4 µM (cell growth or viability, MTT; 48 h).
`[Cl-].[Cl-].[Ru+2].c1ccc(-c2ccccn2)nc1.c1ccc(-c2ccccn2)nc1.c1ccc(-c2ccccn2)nc1` has an IC50 of greater than 100 µM (cell growth or viability; 72 h, dark).
`Cc1ccc(S(=O)(=O)c2c(-c3ccccc3)c3c(C)c4ccccc4n3c3ccccc23)cc1` gave an IC50 of 14.6 µM (cell growth or viability, MTT; 72 h).
For `C=C(C)[C@@H]1CC[C@]2(C(=O)O)CC[C@]3(C)[C@H](CC[C@@H]4[C@@]5(C)CC[C@H](O[C@@H]6O[C@@H](C)[C@H](OC)[C@@H](O)[C@H]6O)C(C)(C)[C@@H]5CC[C@]43C)[C@@H]12`, the IC50 was 2.5 µM (cell growth or viability, fluorescence; 48 h).
